Published values gathered from unrelated publications.
A part holds a random share of what one study measured.
Sequence of UniProt Q9BYT3 (whole entry, looked up): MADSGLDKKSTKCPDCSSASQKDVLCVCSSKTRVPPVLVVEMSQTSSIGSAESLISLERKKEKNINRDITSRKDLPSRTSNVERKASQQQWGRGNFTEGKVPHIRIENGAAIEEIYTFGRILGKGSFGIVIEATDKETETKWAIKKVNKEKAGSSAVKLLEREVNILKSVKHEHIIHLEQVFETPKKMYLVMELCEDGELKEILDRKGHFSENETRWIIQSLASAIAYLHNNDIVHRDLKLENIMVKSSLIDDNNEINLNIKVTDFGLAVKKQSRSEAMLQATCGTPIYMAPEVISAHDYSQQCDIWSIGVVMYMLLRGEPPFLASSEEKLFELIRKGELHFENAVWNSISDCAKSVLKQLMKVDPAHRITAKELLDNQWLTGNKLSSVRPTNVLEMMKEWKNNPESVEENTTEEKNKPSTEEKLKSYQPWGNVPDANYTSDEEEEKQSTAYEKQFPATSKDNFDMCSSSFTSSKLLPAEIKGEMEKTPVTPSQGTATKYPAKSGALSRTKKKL
Sequence of UniProt P11802 (whole entry, looked up): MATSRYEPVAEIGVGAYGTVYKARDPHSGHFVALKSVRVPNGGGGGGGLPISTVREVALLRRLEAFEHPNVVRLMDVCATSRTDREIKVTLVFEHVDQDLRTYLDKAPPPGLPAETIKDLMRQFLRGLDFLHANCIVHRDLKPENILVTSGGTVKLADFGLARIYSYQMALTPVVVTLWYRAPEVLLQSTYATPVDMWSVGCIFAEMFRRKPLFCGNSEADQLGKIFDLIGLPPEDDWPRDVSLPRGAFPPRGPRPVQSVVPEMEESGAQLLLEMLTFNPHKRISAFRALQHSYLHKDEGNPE
Sequence of UniProt Q9UF33 (whole entry, looked up): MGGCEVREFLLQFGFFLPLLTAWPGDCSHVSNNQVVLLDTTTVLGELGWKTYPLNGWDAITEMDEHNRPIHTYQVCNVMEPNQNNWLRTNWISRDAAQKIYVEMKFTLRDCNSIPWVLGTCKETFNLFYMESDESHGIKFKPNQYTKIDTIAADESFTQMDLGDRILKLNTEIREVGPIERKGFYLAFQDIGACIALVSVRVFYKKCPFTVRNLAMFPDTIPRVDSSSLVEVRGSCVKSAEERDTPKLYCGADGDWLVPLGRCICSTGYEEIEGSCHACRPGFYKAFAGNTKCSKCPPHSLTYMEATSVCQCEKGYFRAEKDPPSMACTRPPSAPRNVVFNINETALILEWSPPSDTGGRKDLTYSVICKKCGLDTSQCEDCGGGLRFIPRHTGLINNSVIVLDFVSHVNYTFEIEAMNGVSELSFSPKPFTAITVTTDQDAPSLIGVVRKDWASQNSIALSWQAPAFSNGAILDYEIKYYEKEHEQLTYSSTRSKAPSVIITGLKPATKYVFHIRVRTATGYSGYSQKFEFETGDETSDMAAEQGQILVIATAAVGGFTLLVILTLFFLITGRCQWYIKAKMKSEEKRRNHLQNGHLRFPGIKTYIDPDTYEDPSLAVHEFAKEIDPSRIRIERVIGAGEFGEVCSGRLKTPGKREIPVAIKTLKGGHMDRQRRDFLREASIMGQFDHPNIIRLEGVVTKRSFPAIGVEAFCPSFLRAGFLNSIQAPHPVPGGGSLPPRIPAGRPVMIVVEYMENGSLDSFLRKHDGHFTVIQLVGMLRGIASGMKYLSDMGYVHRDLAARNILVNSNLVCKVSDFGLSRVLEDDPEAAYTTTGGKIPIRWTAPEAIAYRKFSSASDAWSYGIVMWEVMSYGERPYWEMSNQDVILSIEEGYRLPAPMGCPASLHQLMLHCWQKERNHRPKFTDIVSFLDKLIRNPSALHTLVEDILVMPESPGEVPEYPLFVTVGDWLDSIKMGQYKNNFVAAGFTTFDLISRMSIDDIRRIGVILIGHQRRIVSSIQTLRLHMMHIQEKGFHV
Sequence of UniProt Q8IYT8 (whole entry, looked up): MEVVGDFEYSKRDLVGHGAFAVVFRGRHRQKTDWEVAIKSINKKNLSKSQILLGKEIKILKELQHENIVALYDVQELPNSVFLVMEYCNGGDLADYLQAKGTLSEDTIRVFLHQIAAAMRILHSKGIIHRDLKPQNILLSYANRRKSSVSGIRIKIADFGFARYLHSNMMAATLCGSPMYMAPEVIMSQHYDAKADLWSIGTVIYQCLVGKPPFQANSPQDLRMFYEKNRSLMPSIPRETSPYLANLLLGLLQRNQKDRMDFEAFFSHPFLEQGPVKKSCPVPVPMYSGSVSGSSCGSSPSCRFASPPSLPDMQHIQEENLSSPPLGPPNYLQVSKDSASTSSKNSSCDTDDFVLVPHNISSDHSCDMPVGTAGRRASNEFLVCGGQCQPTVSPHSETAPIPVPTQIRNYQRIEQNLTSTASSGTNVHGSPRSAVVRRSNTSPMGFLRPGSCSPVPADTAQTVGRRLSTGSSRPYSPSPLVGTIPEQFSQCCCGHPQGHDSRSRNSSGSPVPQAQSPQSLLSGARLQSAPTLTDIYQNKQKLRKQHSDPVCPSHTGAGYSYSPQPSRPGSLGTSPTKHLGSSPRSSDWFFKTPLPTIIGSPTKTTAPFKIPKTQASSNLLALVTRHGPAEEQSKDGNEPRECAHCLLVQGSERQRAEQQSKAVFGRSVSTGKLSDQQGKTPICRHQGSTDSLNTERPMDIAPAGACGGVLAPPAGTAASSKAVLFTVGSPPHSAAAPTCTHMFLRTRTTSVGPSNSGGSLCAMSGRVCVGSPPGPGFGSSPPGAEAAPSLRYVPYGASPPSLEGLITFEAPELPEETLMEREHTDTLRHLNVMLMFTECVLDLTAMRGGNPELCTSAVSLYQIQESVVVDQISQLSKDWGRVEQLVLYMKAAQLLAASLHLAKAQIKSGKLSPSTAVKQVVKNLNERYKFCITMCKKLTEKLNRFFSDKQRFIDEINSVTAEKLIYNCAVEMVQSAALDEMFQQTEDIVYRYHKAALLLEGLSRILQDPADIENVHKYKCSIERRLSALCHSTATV
Sequence of UniProt Q9Y243 (whole entry, looked up): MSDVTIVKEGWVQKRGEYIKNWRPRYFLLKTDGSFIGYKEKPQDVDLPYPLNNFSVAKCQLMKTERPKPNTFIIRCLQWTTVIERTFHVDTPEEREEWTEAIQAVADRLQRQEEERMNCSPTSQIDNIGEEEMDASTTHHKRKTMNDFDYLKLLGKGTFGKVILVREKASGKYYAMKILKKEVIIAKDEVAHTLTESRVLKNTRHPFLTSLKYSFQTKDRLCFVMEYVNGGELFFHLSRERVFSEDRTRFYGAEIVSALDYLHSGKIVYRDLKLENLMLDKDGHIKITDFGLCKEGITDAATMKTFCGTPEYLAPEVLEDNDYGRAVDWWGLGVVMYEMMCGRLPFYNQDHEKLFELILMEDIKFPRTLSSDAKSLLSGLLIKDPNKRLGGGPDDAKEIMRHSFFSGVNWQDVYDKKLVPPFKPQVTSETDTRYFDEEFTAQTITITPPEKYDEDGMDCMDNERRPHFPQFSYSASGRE
Sequence of UniProt Q9BQI3 (whole entry, looked up): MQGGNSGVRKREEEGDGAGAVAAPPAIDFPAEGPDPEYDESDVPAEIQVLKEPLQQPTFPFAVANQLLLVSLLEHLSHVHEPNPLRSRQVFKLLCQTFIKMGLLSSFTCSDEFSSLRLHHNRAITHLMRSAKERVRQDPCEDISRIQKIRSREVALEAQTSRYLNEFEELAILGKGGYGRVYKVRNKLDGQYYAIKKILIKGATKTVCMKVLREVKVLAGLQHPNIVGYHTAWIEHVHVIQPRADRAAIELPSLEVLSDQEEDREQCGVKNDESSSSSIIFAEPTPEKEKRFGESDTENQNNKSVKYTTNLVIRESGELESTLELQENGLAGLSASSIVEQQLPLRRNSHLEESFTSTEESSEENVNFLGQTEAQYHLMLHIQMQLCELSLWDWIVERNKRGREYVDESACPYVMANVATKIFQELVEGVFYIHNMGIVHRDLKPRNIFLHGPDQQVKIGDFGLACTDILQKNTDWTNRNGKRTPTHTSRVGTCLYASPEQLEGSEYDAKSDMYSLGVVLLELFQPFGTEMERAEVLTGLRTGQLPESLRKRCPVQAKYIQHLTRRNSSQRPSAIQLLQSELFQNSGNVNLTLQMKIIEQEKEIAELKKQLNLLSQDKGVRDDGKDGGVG

Series 1
Compound: CC(C)S(=O)(=O)c1ccc2nccc(Nc3ccc4sc(C5CCCC5)nc4c3)c2c1.Cl
Observed: kinase activity
Action: inhibitor
Tested at: 1 µM
Endpoint: remaining activity
Phosphatidylinositol 4-phosphate 5-kinase type-1 gamma (PIP5K1C, Homo sapiens, UniProt O60331): 97%
Serine/threonine-protein kinase 33 (STK33, Homo sapiens, UniProt Q9BYT3): 100%
Eukaryotic translation initiation factor 2-alpha kinase 1 (EIF2AK1, Homo sapiens, UniProt Q9BQI3): 124%
MAPK/MAK/MRK overlapping kinase (MOK, Homo sapiens, UniProt Q9UQ07): 108%
Serine/threonine-protein kinase ULK2 (ULK2, Homo sapiens, UniProt Q8IYT8): 98%

Series 2
SMILES: Cc1cc(-n2nc(Cc3cc(F)cc(C(F)(F)F)c3)nc2C)ccc1C(N)=O
Method: competition with immobilised ligand
Tested at: 1 µM
Endpoint: remaining binding
Tyrosine-protein kinase ABL1, phosphorylated (ABL1, Homo sapiens, UniProt P00519, E255K); binding: 93%
Serine/threonine-protein kinase TAO2 (TAOK2, Homo sapiens, UniProt Q9UL54); cell-free assay: 91%
Cyclin-dependent kinase 8 (CDK8, Homo sapiens, UniProt P49336); cell-free assay: 97%
Serine/threonine-protein kinase tousled-like 1 (TLK1, Homo sapiens, UniProt Q9UKI8); cell-free assay: 93%
Cyclin-dependent kinase 4, with cyclin D1 (CDK4, Homo sapiens, UniProt P11802); cell-free assay: 100%
Serine/threonine-protein kinase WNK2 (WNK2, Homo sapiens, UniProt Q9Y3S1); cell-free assay: 100%
Serine/threonine-protein kinase 33 (STK33, Homo sapiens, UniProt Q9BYT3); cell-free assay: 100%
RAC-gamma serine/threonine-protein kinase (AKT3, Homo sapiens, UniProt Q9Y243); cell-free assay: 100%
MAP/microtubule affinity-regulating kinase 3 (MARK3, Homo sapiens, UniProt P27448); cell-free assay: 100%
Ephrin type-A receptor 6 (EPHA6, Homo sapiens, UniProt Q9UF33); cell-free assay: 100%

Series 3
Organism: Sarcocystis neurona
Observed: parasite growth
Tested at: 10 µM
Endpoint: inhibition
CCC(C)n1ncn(-c2ccc(N3CCN(c4ccc(OCC5COC(Cn6cncn6)(c6ccc(Cl)cc6Cl)O5)cc4)CC3)cc2)c1=O (stereo not drawn): -35.4%
CCCc1nc(C)c2c(=O)[nH]c(-c3cc(S(=O)(=O)N4CCN(CC)CC4)ccc3OCC)nn12.O=C(O)CC(O)(CC(=O)O)C(=O)O: -31%
CN[C@@H]1[C@H](O)[C@H](NC)[C@H]2O[C@@]3(O)C(=O)C[C@@H](C)O[C@H]3O[C@@H]2[C@H]1O.Cl.Cl: -22.7%
CC[C@@]1(O)C(=O)OCc2c1cc1n(c2=O)Cc2cc3c(CN(C)C)c(O)ccc3nc2-1: -25.3%
COc1ccc2[nH]c([S+]([O-])Cc3ncc(C)c(OC)c3C)nc2c1 (stereo not drawn): -22.3%
CN(C)[C@@H]1C(O)=C(C(N)=O)C(=O)[C@@]2(O)C(O)=C3C(=O)c4c(O)cccc4[C@@](C)(O)[C@H]3[C@H](O)[C@@H]12: 9.5%
OCCN(CCO)c1nc(N2CCCCC2)c2nc(N(CCO)CCO)nc(N3CCCCC3)c2n1: -27.8%
C[C@]12C=CC(=O)C=C1CC[C@@H]1[C@@H]2[C@@H](O)C[C@@]2(C)[C@H]1CC[C@]2(O)C(=O)CO: -23.5%
CCC(C)(C)C(=O)O[C@H]1C[C@@H](C)C=C2C=C[C@H](C)[C@H](CC[C@@H]3C[C@@H](O)CC(=O)O3)[C@H]21: -28.4%

Series 4
Target: Protein kinase C beta type, isoform beta-II (PRKCB, Homo sapiens, UniProt P05771)
Sequence of UniProt P05771 (whole entry, looked up): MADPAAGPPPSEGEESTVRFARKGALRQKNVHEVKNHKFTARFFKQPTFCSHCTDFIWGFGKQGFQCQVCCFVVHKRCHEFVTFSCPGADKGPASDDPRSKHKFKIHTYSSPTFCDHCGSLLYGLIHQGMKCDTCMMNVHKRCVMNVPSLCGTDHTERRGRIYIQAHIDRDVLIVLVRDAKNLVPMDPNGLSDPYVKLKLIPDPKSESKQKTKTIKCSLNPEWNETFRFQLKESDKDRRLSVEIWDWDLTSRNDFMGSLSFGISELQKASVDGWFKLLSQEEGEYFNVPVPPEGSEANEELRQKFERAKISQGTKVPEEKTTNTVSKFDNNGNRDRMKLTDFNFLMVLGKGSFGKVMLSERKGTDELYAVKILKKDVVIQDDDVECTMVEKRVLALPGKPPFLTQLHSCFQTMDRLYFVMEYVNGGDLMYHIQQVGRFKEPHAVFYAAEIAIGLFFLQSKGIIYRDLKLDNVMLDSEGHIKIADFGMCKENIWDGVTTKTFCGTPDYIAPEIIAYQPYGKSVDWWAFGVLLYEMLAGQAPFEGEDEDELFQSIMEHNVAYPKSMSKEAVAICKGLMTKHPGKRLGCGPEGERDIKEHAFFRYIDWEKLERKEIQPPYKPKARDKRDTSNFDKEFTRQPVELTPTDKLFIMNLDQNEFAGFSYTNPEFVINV
Observed: enzyme activity
Action: inhibitor
Tested at: 0.5 µM
Baseline: control
Endpoint: remaining activity
Cc1ccc(NC(=O)c2ccc(CN3CCN(C)CC3)cc2)cc1Nc1nc(-c2cccnc2)cs1: 95.9%
C#Cc1cccc(Nc2ncnc3cc(OCCOC)c(OCCOC)cc23)c1: 98.6%
Oc1ccc(-c2nc(-c3ccncc3)c(-c3ccc(F)cc3)[nH]2)cc1: 75%
O=C1NC(=O)c2cc(Nc3ccc(F)cc3)c(Nc3ccc(F)cc3)cc21: 15.5%
O=c1c2ccccc2[nH]c(=S)n1CCN1CCC(=C(c2ccc(F)cc2)c2ccc(F)cc2)CC1: 98.2%
O=C(O)c1ccc2c3c1cccc3c(=O)n1c3ccccc3nc21: 97%
NCCNc1ncc(C(N)=O)c(Nc2cccc(C(F)(F)F)c2)n1: 86.1%
Cn1c2ccccc2c2c3c(c4c5ccccc5n(CCC#N)c4c21)CNC3=O: 9.73%
COc1ccc(CNC(=O)Nc2ncc([N+](=O)[O-])s2)cc1: 103%
COc1cc2ncnc(Nc3ccc(F)c(Cl)c3)c2cc1OCCCN1CCOCC1: 100%
OCC(O)CCON=C1C(c2c(O)[nH]c3ccccc23)=Nc2ccccc21 (stereo not drawn): 88%
COc1cc2nccc(Oc3ccc(NC(=S)NC(=O)c4ccccc4C)cc3)c2cc1OC: 102%
O=C1NC(=O)C(c2cn(CCCO)c3ncccc23)=C1c1cnccn1: 102%
Cc1nc(-c2ccccc2)c(-c2ccncc2)o1: 88.4%
CNC(=O)c1cc(Oc2ccc(NC(=O)Nc3ccc(Cl)c(C(F)(F)F)c3)cc2)ccn1: 97.5%
CC(C)[C@H](CO)Nc1nc(Nc2cc(N)cc(Cl)c2)c2ncn(C(C)C)c2n1: 97.3%
Nc1ccc2ncnc(NCCc3ccc(Oc4ccccc4)cc3)c2c1: 104%

Further values, each from its own experiment
CNC(=O)c1ccc(-c2cnn3ccc(C(=O)N(CC(=O)O)c4ccc(Cl)cc4)cc23)cc1
plasma concentration (C57BL/6 IFN-γ knockout mouse, female, plasma; oral, 10 mg/kg, 4 h): 0.011 µM

A few entries again (series 3):
COc1ccc2[nH]c([S+]([O-])Cc3ncc(C)c(OC)c3C)nc2c1 (stereo not drawn): -22.3%
CN(C)[C@@H]1C(O)=C(C(N)=O)C(=O)[C@@]2(O)C(O)=C3C(=O)c4c(O)cccc4[C@@](C)(O)[C@H]3[C@H](O)[C@@H]12: 9.5%
CN[C@@H]1[C@H](O)[C@H](NC)[C@H]2O[C@@]3(O)C(=O)C[C@@H](C)O[C@H]3O[C@@H]2[C@H]1O.Cl.Cl: -22.7%
OCCN(CCO)c1nc(N2CCCCC2)c2nc(N(CCO)CCO)nc(N3CCCCC3)c2n1: -27.8%
C[C@]12C=CC(=O)C=C1CC[C@@H]1[C@@H]2[C@@H](O)C[C@@]2(C)[C@H]1CC[C@]2(O)C(=O)CO: -23.5%
CCC(C)n1ncn(-c2ccc(N3CCN(c4ccc(OCC5COC(Cn6cncn6)(c6ccc(Cl)cc6Cl)O5)cc4)CC3)cc2)c1=O (stereo not drawn): -35.4%
CCCc1nc(C)c2c(=O)[nH]c(-c3cc(S(=O)(=O)N4CCN(CC)CC4)ccc3OCC)nn12.O=C(O)CC(O)(CC(=O)O)C(=O)O: -31%
